{"data": "Published values gathered from unrelated publications", "technique": "steady-state kinetics", "B1": "enzyme N158A (Sinorhizobium meliloti, UniProt Q92UV7); chain MTNAEVTIAVRHEPMRIAGRLVDTDDRVEVRYPWNDTVVGTVPAGRAEHAREAFAIAAAYQPKLTRYERQKILLATAEALAARKEEISDVITLELGISKADSLYEVGRAFDVFTLAGQMCIRDDGEIFSCDLTPHGKARKIFTMREPLTAISAITPFAHPLNMVAHKVAPAIATNNCVVVKPTELTPMTALLLADILYEAGLPPEMLSVVTGWPADIGMEMITNPHVDLVTFTGSVPVGKLIAANAHYKRQVLELGGNDPLIILNDLSDDDLARAADLAVAGATKNSGQRCTAVKRILCQESVADRFVPLVLERAKRLRFGDPMDRSTDLGTVIHEKAAALFEERVMRAAEEGADILYHPGRSGALLPPIVVDRVPHQSDLVLEETFGPIIPIVRVPDDDDATITLSNSTAFGLSSGVCTNDYRRMQKYIAGLKVGTVNIWEVPGYRIEMSPFGGIKDSGNGYKEGVIEAMKSFTNVKTFSLPWP", "B2": "tsaM1 F253S/G291W/H204M/H255G/M230N/R216A/S234V/S257H/T232I/Y220I (Comamonas testosteroni, UniProt P94679); chain MFIRNCWYVAAWDTEIPAEGLFHRTLLNEPVLLYRDTQGRVVALENRCCHRSAPLHIGRQEGDCVRCLYHGLKFNPSGACVEIPGQEQIPPKTCIKSYPVVERNRLVWIWMGDPARANPDDIVDYFWHDSPEWRMKPGYIHYQANYKLIVDNLLDFTHLAWVHPTTLGTDSAASLKPVIERDTTGTGKLTITRWYLNDDMSNLMKGVAKFEGKADAWQIIQWSPPALLRNDIGVAPTGTGAPEGRRVPEAVQSRGTHIQTPETETTSHYWFCQARNFDLDDEALTEKIYQWVVVAFEEDRTMIEAHEKILSQVPDRPMVPIAADAGLNQGRWLLDRLLKAENGGTAP", "B3": "moaA (Staphylococcus aureus, UniProt P69848); chain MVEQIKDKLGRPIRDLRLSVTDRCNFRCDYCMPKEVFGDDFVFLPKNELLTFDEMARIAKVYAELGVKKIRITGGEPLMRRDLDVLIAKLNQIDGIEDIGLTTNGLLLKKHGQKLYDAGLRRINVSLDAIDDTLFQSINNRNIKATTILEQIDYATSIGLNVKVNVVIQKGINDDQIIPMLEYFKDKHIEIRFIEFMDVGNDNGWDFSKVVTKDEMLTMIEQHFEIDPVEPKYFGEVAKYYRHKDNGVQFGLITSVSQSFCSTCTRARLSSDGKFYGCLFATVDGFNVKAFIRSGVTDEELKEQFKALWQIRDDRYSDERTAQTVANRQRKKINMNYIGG", "B4": "PhnY (uncultured bacterium HF130_AEPn_1, UniProt D0E8I4); chain MSYFTQEQKTQWKDNGFVHLKGFLNEALAQDIKDWTQELYEWEEAPGKWMKYFETSSDTGERLLCRVENFIDYHKGIKGFLCGEMIYGMVSELMGEQAVLFKEKINFKYPGGAGFAYHQDAPAFTSFGQKYHITMMVSVDASNEENGCLRMAHGFSEEKTLEQEPDGTVCKKLAAKLDWRPLETGPGDLVLFNSYVPHYSEANTSDRSRRAMFITYNRLSEGEKRLDYFKDKREKFPPEAERIEGKDYSSAESLYNLGNPIK", "B5": "protein (Sulfurisphaera tokodaii, UniProt Q96XE7); chain MIILAFDIFGTVLDTSTVIQEFRNKQLEYTWLLTIMGKYVEFEEITKITLRYILKVRGEESKFDEELNKWKNLKAYEDTKYLKEISEIAEVYALSNGSINEVKQHLERNGLLRYFKGIFSAESVKEYKPSPKVYKYFLDSIGAKEAFLVSSNAFDVIGAKNAGMRSIFVNRKNTIVDPIGGKPDVIVNDFKELYEWILRYK", "B6": "enzyme I209A (Thermococcus kodakarensis, UniProt Q5JID5); chain MLYVEILGNLPEMARDEVKAMLELGGGEIIGQDYLFLKVDAGEKAFPFLDRLGLAHEYGLLLVEADSVEELLQKAGEVEWPIKGAFKVDTETMANCRHDVLDLPRKLGAVIHAQGFRVNLSKPDTVVRVYCGERLYAGIRLRYFDPKDFEKRKAHHRPFFRPISLHPRVSRALVNLTKATREILDPFMGAGGILIEAGLLGLRVYGVDARPEMVEGAETNLKHYGVRDYTLKLGDATRLEDLFPDKKFEAVATDPPYGTAATLAGRKRDELYRKALRSIYNVLEDGGRLAIAFPTDFNGKAEAEAVGFRTLGRYYQRVHKSLERYFYVFEK", "B7": "protein Y93A (Thermus thermophilus, UniProt Q5SKR5); chain MSAPKPFVIGIAGGTASGKTTLAQALARTLGERVALLPMDHYYKDLGHLPLEERLRVNYDHPDAFDLALYLEHAQALLRGLPVEMPVYDFRAATRSPRRTPVRPAPVVILEGILVLYPKELRDLMDLKVFVDADADERFIRRLKRDVLERGRSLEGVVAQYLEQVKPMHLHFVEPTKRYADVIVPRGGQNPVALEMLAAKALARLARMGAA", "B8": "carbamoyl phosphate synthetase large subunit A23K (Escherichia coli, UniProt P00968); chain PKRTDIKSILILGAGPIVIGQKCEFDYSGAQACKALREEGYRVILVNSNPATIMTDPEMADATYIEPIHWEVVRKIIEKERPDAVLPTMGGQTALNCALELERQGVLEEFGVTMIGATADAIDKAEDRRRFDVAMKKIGLETARSGIAHTMEEALAVAADVGFPCIIRPSFTMGGSGGGIAYNREEFEEICARGLDLSPTKELLIDESLIGWKEYEMEVVRDKNDNCIIVCSIENFDAMGIHTGDSITVAPAQTLTDKEYQIMRNASMAVLREIGVETGGSNVQFAVNPKNGRLIVIEMNPRVSRSSALASKATGFPIAKVAAKLAVGYTLDELMNDITGGRTPASFEPSIDYVVTKIPRFNFEKFAGANDRLTTQMKSVGEVMAIGRTQQESLQKALRGLEVGATGFDPKVSLDDPEALTKIRRELKDAGADRIWYIADAFRAGLSVDGVFNLTNIDRWFLVQIEELVRLEEKVAEVGITGLNADFLRQLKRKGFADARLAKLAGVREAEIRKLRDQYDLHPVYKRVDTCAAEFATDTAYMYSTYEEECEANPSTDREKIMVLGGGPNRIGQGIEFDYCCVHASLALREDGYETIMVNCNPETVSTDYDTSDRLYFEPVTLEDVLEIVRIEKPKGVIVQYGGQTPLKLARALEAAGVPVIGTSPDAIDRAEDRERFQHAVERLKLKQPANATVTAIEMAVEKAKEIGYPLVVRPSYVLGGRAMEIVYDEADLRRYFQTAVSVSNDAPVLLDHFLDDAVEVDVDAICDGEMVLIGGIMEHIEQAGVHSGDSACSLPAYTLSQEIQDVMRQQVQKLAFELQVRGLMNVQFAVKNNEVYLIEVNPRAARTVPFVSKATGVPLAKVAARVMAGKSLAEQGVTKEVIPPYYSVKEVVLPFNKFPGVDPLLGPEMRSTGEVMGVGRTFAEAFAKAQLGSNSTMKKHGRALLSVREGDKERVVDLAAKLLKQGFELDATHGTAIVLGEAGINPRLVNKVHEGRPHIQDRIKNGEYTYIINTTSGRRAIEDSRVIRRSALQYKVHYDTTLNGGFATAMALNADATEKVISVQEMHAQIK", "B9": "BaiA2 (Clostridium scindens, UniProt P19337); chain MNLVQDKVTIITGGTRGIGFAAAKIFIDNGAKVSIFGETQEEVDTALAQLKELYPEEEVLGFAPDLTSRDAVMAAVGQVAQKYGRLDVMINNAGITSNNVFSRVSEEEFKHIMDINVTGVFNGAWCAYQCMKDAKKGVIINTASVTGIFGSLSGVGYPASKASVIGLTHGLGREIIRKNIRVVGVAPGVVNTDMTNGNPPEIMEGYLKALPMKRMLEPEEIANVYLFLASDLASGITATTVSVDGAYRP", "note": "Each line is one published result; not all experiments were run side by side. ± gives the spread as reported."}
{"Substance": "B1 (enzyme N158A)", "substrate": "NC(=O)c1ccc[n+]([C@@H]2O[C@H](COP(=O)(O)OP(=O)(O)OC[C@H]3O[C@@H](n4cnc5c(N)ncnc54)[C@H](O)[C@@H]3O)[C@@H](O)[C@H]2O)c1", "pH": "pH 7.5", "temperature": "30 °C", "setting": "cofactor varied", "kcat [s⁻¹]": "0.01 ± 0.001"}
{"Substance": "pylS (Methanosarcina mazei, UniProt Q8PWY1)", "substrate": "C[C@@H]1CC=N[C@H]1C(=O)NCCCC[C@H](N)C(=O)O", "pH": "pH 7.2", "temperature": "37 °C", "setting": "apparent", "kcat [s⁻¹]": "0.0012 ± 0.0001"}
{"Substance": "B2", "substrate": "COc1c(Cl)ccc(Cl)c1C(=O)O", "setting": "apparent", "added": "NADH 1 mM", "kcat [s⁻¹]": "0.0467 ± 0.005"}
{"Substance": "B3 (moaA)", "substrate": "Nc1nc2c(ncn2[C@@H]2O[C@H](COP(=O)(O)OP(=O)(O)OP(=O)(O)O)[C@@H](O)[C@H]2O)c(=O)[nH]1", "pH": "pH 7.6", "temperature": "25 °C", "added": "SAM, dithionite, MgCl2 1 mM", "kcat [s⁻¹]": "0.00075 ± 5e-05"}
{"Substance": "B4 (PhnY)", "substrate": "NCCP(=O)(O)O", "setting": "apparent, two-enzyme system", "added": "O2, alpha-ketoglutarate, Fe(II)", "kcat [s⁻¹]": "0.91 ± 0.15"}
{"Substance": "B5 (protein)", "substrate": "C[C@H](Cl)C(=O)O", "pH": "pH 9.5", "temperature": "70 °C", "kcat [s⁻¹]": "0.00213 ± 8.7e-05"}
{"Substance": "B6 (enzyme I209A)", "substrate": "C[S+](CC[C@H](N)C(=O)O)C[C@H]1O[C@@H](n2cnc3c(N)ncnc32)[C@H](O)[C@@H]1O", "pH": "pH 7.5", "temperature": "50 °C", "setting": "apparent", "kcat [s⁻¹]": "0.00333 ± 0.000667"}
{"Substance": "B7 (protein Y93A)", "substrate": "Nc1ccn([C@@H]2O[C@H](CO)[C@@H](O)[C@H]2O)c(=O)n1", "pH": "pH 7.2", "temperature": "25 °C", "setting": "KCl 100 mM", "added": "ATP 100–200 µM", "kcat [s⁻¹]": "4.5 ± 0.8"}
{"Substance": "GAR synthetase (Cryptococcus neoformans, UniProt J9VYP5)", "substrate": "Nc1ncnc2c1ncn2[C@@H]1O[C@H](COP(=O)(O)OP(=O)(O)OP(=O)(O)O)[C@@H](O)[C@H]1O", "pH": "pH 8", "temperature": "37 °C", "setting": "apparent", "kcat [s⁻¹]": "17.3 ± 0.3"}
{"Substance": "B8", "substrate": "Nc1ncnc2c1ncn2[C@@H]1O[C@H](COP(=O)(O)OP(=O)(O)OP(=O)(O)O)[C@@H](O)[C@H]1O", "pH": "pH 7.6", "setting": "KCl 100 mM", "added": "glutamine 10 mM, ornithine 10 mM", "kcat [s⁻¹]": "0.28 ± 0.01"}
{"Substance": "enzyme (Vitis vinifera, UniProt F6H697)", "substrate": "O=C(O)Cc1c[nH]c2ccccc12", "pH": "pH 8.6", "temperature": "25 °C", "kcat [s⁻¹]": 0.238}
{"Substance": "Ptb (Listeria monocytogenes, UniProt Q8Y7B7)", "substrate": "CC(C)CC(=O)SCCNC(=O)CCNC(=O)[C@H](O)C(C)(C)COP(=O)(O)OP(=O)(O)OC[C@H]1O[C@@H](n2cnc3c(N)ncnc32)[C@H](O)[C@@H]1OP(=O)(O)O", "pH": "pH 7.5", "temperature": "25 °C", "setting": "apparent", "kcat [s⁻¹]": "1040 ± 12.2"}
{"Substance": "IYD (Homo sapiens, UniProt Q6PHW0)", "substrate": "N[C@@H](Cc1cc(F)c(O)c(I)c1)C(=O)O", "pH": "pH 7.4", "temperature": "25 °C", "added": "sodium dithionite 0.5%", "kcat [s⁻¹]": "0.06 ± 0.008"}
{"Substance": "protein (Clostridioides difficile, UniProt Q18B70)", "substrate": "C[C@@H](O)[C@H](N)C(=O)O", "pH": "pH 8", "temperature": "37 °C", "added": "AcCoA 1 mM, L-Thr 0-10 mM", "kcat [s⁻¹]": 8.32}
{"Substance": "B9 (BaiA2)", "substrate": "C[C@H](CCC(=O)SCCNC(=O)CCNC(=O)[C@H](O)C(C)(C)COP(=O)(O)OP(=O)(O)OC[C@H]1O[C@@H](n2cnc3c(N)ncnc32)[C@H](O)[C@@H]1OP(=O)(O)O)[C@H]1CC[C@H]2[C@@H]3CC[C@@H]4CC(=O)CC[C@]4(C)[C@H]3CC[C@]12C", "pH": "pH 8.7", "temperature": "37 °C", "added": "NADH", "kcat [s⁻¹]": 0.122}
{"Substance": "enzyme (Elizabethkingia miricola, UniProt Q47898)", "substrate": "CC(=O)N[C@@H]1[C@@H](O)[C@H](O)[C@@H](CO)O[C@H]1NC(=O)C[C@H](N)C(=O)O", "pH": "pH 7.5", "temperature": "37 °C", "kcat [s⁻¹]": "14.2 ± 0.99"}
